Assay results collected from several papers.
Each numbered part is a random draw from the data of one study; scales do not carry over between parts. “And” joins repeats or separate records; there may be more than shown.
UniProt Q9HCP0, sequence (whole entry, looked up): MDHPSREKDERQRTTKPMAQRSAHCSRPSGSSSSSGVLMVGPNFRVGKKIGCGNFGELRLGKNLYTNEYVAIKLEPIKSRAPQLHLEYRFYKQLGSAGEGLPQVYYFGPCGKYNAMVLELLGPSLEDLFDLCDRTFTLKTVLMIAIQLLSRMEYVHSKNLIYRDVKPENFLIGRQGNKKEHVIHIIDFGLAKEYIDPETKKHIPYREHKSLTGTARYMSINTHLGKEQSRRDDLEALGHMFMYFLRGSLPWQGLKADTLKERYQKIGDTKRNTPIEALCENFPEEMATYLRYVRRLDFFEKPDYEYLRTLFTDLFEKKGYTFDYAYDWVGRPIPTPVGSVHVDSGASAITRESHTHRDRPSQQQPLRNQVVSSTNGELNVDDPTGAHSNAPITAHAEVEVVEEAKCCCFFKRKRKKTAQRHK
UniProt P04049, sequence (whole entry, looked up): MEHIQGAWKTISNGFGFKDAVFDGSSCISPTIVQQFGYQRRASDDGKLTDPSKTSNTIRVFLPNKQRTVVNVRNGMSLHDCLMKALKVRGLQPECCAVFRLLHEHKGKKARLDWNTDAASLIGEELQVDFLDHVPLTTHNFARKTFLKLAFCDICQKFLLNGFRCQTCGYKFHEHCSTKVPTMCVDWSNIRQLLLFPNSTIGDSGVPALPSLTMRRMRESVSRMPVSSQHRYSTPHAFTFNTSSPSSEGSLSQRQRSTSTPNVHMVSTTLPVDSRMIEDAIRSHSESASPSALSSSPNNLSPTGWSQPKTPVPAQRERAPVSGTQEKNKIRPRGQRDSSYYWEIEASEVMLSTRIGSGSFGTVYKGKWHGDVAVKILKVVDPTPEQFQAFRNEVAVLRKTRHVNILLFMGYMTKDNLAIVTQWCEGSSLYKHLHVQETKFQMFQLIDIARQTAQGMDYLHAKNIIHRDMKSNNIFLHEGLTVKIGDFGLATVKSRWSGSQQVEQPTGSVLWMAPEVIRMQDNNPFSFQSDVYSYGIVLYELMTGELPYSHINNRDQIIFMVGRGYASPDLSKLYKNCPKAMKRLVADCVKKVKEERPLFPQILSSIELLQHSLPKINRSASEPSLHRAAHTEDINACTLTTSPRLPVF
UniProt Q9HAZ1, sequence (whole entry, looked up): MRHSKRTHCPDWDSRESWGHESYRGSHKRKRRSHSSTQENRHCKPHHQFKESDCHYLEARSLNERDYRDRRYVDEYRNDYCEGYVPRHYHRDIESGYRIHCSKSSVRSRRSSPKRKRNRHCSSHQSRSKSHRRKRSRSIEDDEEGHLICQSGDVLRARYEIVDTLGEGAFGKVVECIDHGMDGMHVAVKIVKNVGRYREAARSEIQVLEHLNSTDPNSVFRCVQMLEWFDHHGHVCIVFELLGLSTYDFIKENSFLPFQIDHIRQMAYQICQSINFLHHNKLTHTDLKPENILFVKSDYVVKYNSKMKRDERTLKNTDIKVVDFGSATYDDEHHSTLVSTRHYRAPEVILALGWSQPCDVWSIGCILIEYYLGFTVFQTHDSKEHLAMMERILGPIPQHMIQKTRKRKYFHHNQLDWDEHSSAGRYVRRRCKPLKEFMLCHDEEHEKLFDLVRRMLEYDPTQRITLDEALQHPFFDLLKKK

Block 1
Target: Sodium-dependent neutral amino acid transporter B(0)AT1 (SLC6A19, Homo sapiens, UniProt Q695T7)
UniProt Q695T7, sequence (whole entry, looked up): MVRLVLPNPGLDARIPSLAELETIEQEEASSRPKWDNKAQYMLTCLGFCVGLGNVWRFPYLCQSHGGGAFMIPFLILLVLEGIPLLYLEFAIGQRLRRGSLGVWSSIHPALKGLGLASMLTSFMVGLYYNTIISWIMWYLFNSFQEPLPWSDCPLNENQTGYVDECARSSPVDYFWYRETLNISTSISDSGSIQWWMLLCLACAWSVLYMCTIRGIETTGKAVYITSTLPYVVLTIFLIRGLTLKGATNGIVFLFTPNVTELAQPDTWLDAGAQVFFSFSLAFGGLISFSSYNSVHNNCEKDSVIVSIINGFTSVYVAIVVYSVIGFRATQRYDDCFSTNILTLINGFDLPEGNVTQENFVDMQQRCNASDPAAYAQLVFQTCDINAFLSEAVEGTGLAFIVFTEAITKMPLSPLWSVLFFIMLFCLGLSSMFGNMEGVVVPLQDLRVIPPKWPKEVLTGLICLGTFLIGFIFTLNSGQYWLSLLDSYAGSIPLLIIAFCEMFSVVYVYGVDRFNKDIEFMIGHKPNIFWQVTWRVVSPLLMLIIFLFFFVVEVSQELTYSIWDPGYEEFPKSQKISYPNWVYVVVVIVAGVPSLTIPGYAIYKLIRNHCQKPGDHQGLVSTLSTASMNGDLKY
Read-out: membrane potential
Method: FLIPR membrane potential
Cell line: CHO-BC cells
Concentration: concentration not given
Notes: first screen
Relative to: uninhibited control
`CON(C)C(=O)COc1cc(C)c(Cl)c(C)c1`: “normalised transport activity” 1 and 1.24 and 0.89 and 0.949.
`CCC(C)NC(=O)COc1cc(C)c(Cl)c(C)c1` (racemic): “normalised transport activity” 0.901 and 1.14 and 0.94 and 1.16 and 1.13.
Under “normalised transport activity”, `Cc1cc(OCC(=O)NC(C)(C)C)cc(C)c1Cl` is recorded as 1.11 and 1.05 and 1.08 and 1.06.
For `Cc1cc(OCC(=O)NCc2ccccc2)cc(C)c1Cl`, “normalised transport activity” read 0.92 and 0.848 and 1.07 and 0.945.
`Cc1cc(OC(C)C(=O)NC(C)C)cc(C)c1Cl` (racemic) — result for “normalised transport activity”: 0.976 and 0.886 and 0.735 and 0.929 and 0.947.
For `CC(C)NC(=O)COc1ccc(I)cc1`, “normalised transport activity” read 0.48 and 0.638 and 0.472 and 0.492.

Block 2
SMILES: C[C@@H]1CN(c2ccc(-c3cc(C(=O)NCCOCCOCCOCCOCCOCCOCCNC(=O)/C=C/c4[nH]cc(C(=O)N[C@@H](CC(N)=O)c5ccc(F)c(Cl)c5)c4-c4ccc(Cl)cc4F)ccc3F)cc2NC(=O)c2ccc(F)cc2C(F)(F)F)C[C@H](C)N1C
Read-out: thermal unfolding
Method: differential scanning fluorimetry
Concentration: 5.5 µM
Direction: higher = more unfolded
DCAF1: DDB1- and CUL4-associated factor 1 (DCAF1, Homo sapiens, UniProt Q9Y4B6)
UniProt Q9Y4B6, sequence (whole entry, looked up): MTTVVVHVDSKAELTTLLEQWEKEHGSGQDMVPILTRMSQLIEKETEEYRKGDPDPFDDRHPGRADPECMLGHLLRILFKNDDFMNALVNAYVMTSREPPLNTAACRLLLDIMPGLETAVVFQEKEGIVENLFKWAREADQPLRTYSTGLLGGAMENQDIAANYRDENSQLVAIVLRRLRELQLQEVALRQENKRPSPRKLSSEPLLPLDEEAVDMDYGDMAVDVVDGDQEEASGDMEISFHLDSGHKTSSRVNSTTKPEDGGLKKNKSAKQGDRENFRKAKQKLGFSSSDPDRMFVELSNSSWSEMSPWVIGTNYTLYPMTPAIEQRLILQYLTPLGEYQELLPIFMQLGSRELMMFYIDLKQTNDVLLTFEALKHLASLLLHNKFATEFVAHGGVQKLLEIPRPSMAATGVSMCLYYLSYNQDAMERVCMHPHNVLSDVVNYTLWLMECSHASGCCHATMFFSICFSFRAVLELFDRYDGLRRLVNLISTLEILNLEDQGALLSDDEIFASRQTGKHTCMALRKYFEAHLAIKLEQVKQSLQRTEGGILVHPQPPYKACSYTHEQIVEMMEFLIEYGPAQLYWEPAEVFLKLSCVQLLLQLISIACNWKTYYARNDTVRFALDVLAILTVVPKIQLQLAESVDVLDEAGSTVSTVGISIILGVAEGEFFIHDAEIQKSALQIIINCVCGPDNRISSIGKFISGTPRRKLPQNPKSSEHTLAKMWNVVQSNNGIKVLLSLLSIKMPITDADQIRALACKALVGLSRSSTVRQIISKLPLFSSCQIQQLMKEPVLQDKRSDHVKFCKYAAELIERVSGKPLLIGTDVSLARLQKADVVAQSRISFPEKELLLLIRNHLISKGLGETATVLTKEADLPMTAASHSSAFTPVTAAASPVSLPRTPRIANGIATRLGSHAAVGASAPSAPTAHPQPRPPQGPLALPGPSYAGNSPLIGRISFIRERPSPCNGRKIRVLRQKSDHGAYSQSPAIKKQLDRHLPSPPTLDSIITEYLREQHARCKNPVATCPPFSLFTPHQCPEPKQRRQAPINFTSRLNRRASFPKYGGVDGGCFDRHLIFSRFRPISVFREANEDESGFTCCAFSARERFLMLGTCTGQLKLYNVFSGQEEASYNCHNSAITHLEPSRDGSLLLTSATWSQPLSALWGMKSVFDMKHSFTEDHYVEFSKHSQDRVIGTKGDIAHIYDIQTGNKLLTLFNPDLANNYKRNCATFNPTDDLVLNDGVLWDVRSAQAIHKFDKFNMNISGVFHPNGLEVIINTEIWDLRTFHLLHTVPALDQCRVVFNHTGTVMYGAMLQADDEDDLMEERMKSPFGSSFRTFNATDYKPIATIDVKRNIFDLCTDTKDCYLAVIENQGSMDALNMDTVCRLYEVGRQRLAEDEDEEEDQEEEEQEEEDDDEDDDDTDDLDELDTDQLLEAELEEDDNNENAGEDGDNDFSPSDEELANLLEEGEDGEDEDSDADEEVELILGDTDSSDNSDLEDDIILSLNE
WDR5: WD repeat-containing protein 5 (WDR5, Homo sapiens, UniProt P61964)
For DCAF1; 66.21 °C: “SYPRO Orange fluorescence” read 52500 a.u.
It gave 15500 a.u. for “SYPRO Orange fluorescence” (WDR5; 59.61 °C).
The “SYPRO Orange fluorescence” was 48700 a.u. (DCAF1; 69.61 °C).
For WDR5; 68.81 °C: “SYPRO Orange fluorescence” read 23800 a.u.
It gave 41600 a.u. for “SYPRO Orange fluorescence” (DCAF1; 77.61 °C).
It gave 45300 a.u. for “SYPRO Orange fluorescence” (WDR5; 74.21 °C).
For WDR5; 60.01 °C: “SYPRO Orange fluorescence” read 15400 a.u.
WDR5; 54.61 °C — “SYPRO Orange fluorescence”: 16900 a.u.
The “SYPRO Orange fluorescence” was 15700 a.u. (WDR5; 58.81 °C).
For WDR5; 74.61 °C: “SYPRO Orange fluorescence” read 47000 a.u.
For WDR5; 93.81 °C: “SYPRO Orange fluorescence” read 49600 a.u.

Block 3
Structure (SMILES): CN(C1COC1)C(C)(C)/C=C(\C#N)C(=O)N1CCC[C@H]1Cn1nc(-c2ccc(Oc3ccccc3)cc2F)c2c(N)ncnc21
Read-out: kinase activity
PIK3CB: Phosphatidylinositol 4,5-bisphosphate 3-kinase catalytic subunit beta isoform (PIK3CB, Homo sapiens, UniProt P42338)
UniProt P42338, sequence (whole entry, looked up): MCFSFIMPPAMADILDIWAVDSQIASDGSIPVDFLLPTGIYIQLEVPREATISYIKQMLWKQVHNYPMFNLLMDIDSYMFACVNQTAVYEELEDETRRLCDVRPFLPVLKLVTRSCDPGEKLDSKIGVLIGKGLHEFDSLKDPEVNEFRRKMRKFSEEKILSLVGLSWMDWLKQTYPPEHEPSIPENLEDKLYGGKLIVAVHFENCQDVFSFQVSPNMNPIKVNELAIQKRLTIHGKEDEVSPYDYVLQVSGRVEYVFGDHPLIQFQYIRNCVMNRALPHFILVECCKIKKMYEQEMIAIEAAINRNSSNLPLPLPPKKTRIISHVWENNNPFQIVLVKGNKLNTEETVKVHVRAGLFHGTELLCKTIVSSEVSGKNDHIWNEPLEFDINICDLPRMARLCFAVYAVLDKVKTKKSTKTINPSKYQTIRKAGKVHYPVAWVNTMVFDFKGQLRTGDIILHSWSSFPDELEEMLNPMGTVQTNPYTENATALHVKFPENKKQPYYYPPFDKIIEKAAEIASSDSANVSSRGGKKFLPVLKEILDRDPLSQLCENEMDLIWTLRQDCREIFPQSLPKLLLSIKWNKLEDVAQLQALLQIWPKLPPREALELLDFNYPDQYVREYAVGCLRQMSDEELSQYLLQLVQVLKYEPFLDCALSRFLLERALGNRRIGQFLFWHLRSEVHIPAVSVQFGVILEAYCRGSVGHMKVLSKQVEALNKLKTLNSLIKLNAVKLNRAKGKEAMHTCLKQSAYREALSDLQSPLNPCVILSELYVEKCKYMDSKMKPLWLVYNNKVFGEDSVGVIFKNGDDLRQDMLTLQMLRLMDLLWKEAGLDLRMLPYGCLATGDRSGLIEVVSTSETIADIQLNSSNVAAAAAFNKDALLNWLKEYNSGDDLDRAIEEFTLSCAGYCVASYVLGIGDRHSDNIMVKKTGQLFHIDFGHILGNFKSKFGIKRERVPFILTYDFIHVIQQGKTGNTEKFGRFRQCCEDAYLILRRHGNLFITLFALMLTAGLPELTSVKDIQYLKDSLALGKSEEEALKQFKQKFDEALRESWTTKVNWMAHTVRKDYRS
It gave -1% for inhibition (Mitogen-activated protein kinase kinase kinase kinase 4 (MAP4K4, Homo sapiens, UniProt O95819); 1 µM).
It gave 6% for inhibition (Dual specificity protein kinase CLK4 (CLK4, Homo sapiens, UniProt Q9HAZ1); 0.1 µM).
The inhibition was 52% (Tyrosine-protein kinase TXK (TXK, Homo sapiens, UniProt P42681); 0.1 µM).
Serine/threonine-protein kinase B-raf (BRAF, Homo sapiens, UniProt P15056); 0.1 µM — inhibition: 0%.
It gave -16% for inhibition (Serine/threonine-protein kinase PLK1 (PLK1, Homo sapiens, UniProt P53350); 1 µM).
Serine/threonine-protein kinase MRCK alpha (CDC42BPA, Homo sapiens, UniProt Q5VT25); 1 µM — inhibition: 0%.
Dual specificity tyrosine-phosphorylation-regulated kinase 4 (DYRK4, Homo sapiens, UniProt Q9NR20); 1 µM — inhibition: 4%.
Serine/threonine-protein kinase haspin (HASPIN, Homo sapiens, UniProt Q8TF76); 1 µM — inhibition: -1%.
Homeodomain-interacting protein kinase 3 (HIPK3, Homo sapiens, UniProt Q9H422); 0.1 µM — inhibition: 4%.
For Activated CDC42 kinase 1 (TNK2, Homo sapiens, UniProt Q07912); 0.1 µM: inhibition read 3%.
It gave 0% for inhibition (Casein kinase I isoform gamma-1 (CSNK1G1, Homo sapiens, UniProt Q9HCP0); 0.1 µM).
The inhibition was 4% (PIK3CB; 0.1 µM).
For MAP/microtubule affinity-regulating kinase 4 (MARK4, Homo sapiens, UniProt Q96L34); 0.1 µM: inhibition read 3%.
It gave -3% for inhibition (Serine/threonine-protein kinase PAK 1 (PAK1, Homo sapiens, UniProt Q13153); 1 µM).
It gave -9% for inhibition (Platelet-derived growth factor receptor alpha (PDGFRA, Homo sapiens, UniProt P16234); 0.1 µM).
Protein kinase C eta type (PRKCH, Homo sapiens, UniProt P24723); 0.1 µM — inhibition: 5%.
It gave 7% for inhibition (RAF proto-oncogene serine/threonine-protein kinase (RAF1, Homo sapiens, UniProt P04049); 1 µM).
The inhibition was -8% (PIK3CB; 1 µM).
For Dual specificity tyrosine-phosphorylation-regulated kinase 2 (DYRK2, Homo sapiens, UniProt Q92630); 1 µM: inhibition read -2%.
For Ribosomal protein S6 kinase alpha-2 (RPS6KA2, Homo sapiens, UniProt Q15349); 0.1 µM: inhibition read 6%.
It gave -6% for inhibition (Insulin-like growth factor 1 receptor (IGF1R, Homo sapiens, UniProt P08069); 1 µM).

Block 4
Compound: Cc1ncsc1-c1ccc(C(CO)NC(=O)C2CC(O)CN2C(=O)C(C(C)C)n2cc(-c3ccc(COc4c(-c5c(C)c(F)cc6[nH]ncc56)c(C5CC5)cc5c(N6CC7CC6CN7)nc(OC6CCOCC6)nc45)cc3)nn2)cc1 (stereo not drawn)
It gave 24.5 g and 30.4 g and 26.1 g for body weight (mouse, PK-59 xenograft; 1 mg/kg, day 14).
mouse, lung LXFA sample B PDX; 10 mg/kg twice weekly, day 0 — body weight: 22.6 g and 27 g.
The body weight was 20 g and 19.7 g and 18.4 g and 18 g (mouse, PK-59 xenograft; subcutaneous, 30 mg/kg once daily, day 18).
The body weight was 19.9 g and 18.8 g and 19.4 g and 20 g and 18 g (mouse, PK-59 xenograft; subcutaneous, 30 mg/kg once daily, day 20).
mouse, HT-29 xenograft; sc, 30 mg/kg once daily, day 8 — body weight: 18.9 g and 18.1 g and 20.6 g and 17.1 g and 20.8 g.
For mouse, PK-59 xenograft; 1 mg/kg, day 21: body weight read 26 g and 32.3 g.
It gave 18.1 g and 18.5 g and 20.4 g and 19.1 g and 18.9 g for body weight (mouse, A-375 xenograft; sc, 30 mg/kg once daily, day 10).
mouse, PK-59 xenograft; 10 mg/kg, day 4 — body weight: 23.6 g and 24.9 g and 24 g and 26 g and 28.2 g.
It gave 20.6 g and 19.4 g and 18.7 g and 21.8 g for body weight (mouse, PK-59 xenograft; subcutaneous, 30 mg/kg once daily, day 8).
mouse, PK-59 xenograft; subcutaneous, 30 mg/kg once daily, day 13 — body weight: 21.4 g and 19.5 g and 20.6 g and 19 g and 18.4 g.

Excerpt of the above (block 1):
Under “normalised transport activity”, `Cc1cc(OCC(=O)NC(C)(C)C)cc(C)c1Cl` is recorded as 1.11 and 1.05 and 1.08 and 1.06.
For `CC(C)NC(=O)COc1ccc(I)cc1`, “normalised transport activity” read 0.48 and 0.638 and 0.472 and 0.492.
For `Cc1cc(OCC(=O)NCc2ccccc2)cc(C)c1Cl`, “normalised transport activity” read 0.92 and 0.848 and 1.07 and 0.945.
`CON(C)C(=O)COc1cc(C)c(Cl)c(C)c1`: “normalised transport activity” 1 and 1.24 and 0.89 and 0.949.
`Cc1cc(OC(C)C(=O)NC(C)C)cc(C)c1Cl` (racemic) — result for “normalised transport activity”: 0.976 and 0.886 and 0.735 and 0.929 and 0.947.
